# Measurements from different studies.
# Several values in a cell are separate wells, animals, samples, runs or records. Numbers after ± are the reported error.
Structure (SMILES),assay,system,setting,how to read,quantity,result
CC[C@@H](C)[C@@H](NC(=O)[C@@H](Cc1ccc(O)cc1)NC(=O)[C@H]1CCCN1C(=O)[C@@H](CCCNC(=N)N)NC(=O)[C@H](N)Cc1c[nH]cn1)C(=O)N[C@H](C)C(=O)N[C@H](Cc1c[nH]cn1)C(=O)N[C@H](CCCNC(=N)N)C(=O)N[C@H](CCCCNC(=O)c1cccc(S(=O)(=O)F)c1)C(=O)N[C@H](Cc1ccc(O)cc1)C(=O)N[C@H](CO)C(=O)N[C@H](Cc1ccccc1)C(N)=O,ex vivo flow cytometry,"B16 tumour-bearing mice, tumour",dose not given,,CD3+ CD8+ T cell frequency,21.2% and 18.8% and 21.1% and 20.8% and 22.4%
CC[C@H](C)[C@@H]1NC(=O)[C@@H]2CCCN2C(=O)[C@H](CC(C)C)NC(=O)[C@H](CC(C)C)NC(=O)CNC(=O)[C@@H](NC(=O)[C@@H](NC(=O)[C@H](CC(=O)O)NC(=O)CNC(=O)[C@@H](NC(=O)[C@H](C)NC(=O)CNC(=O)[C@H](CCCCN)NC(=O)[C@H](CC(C)C)NC(=O)[C@H](CC(C)C)NC(=O)[C@H](CCCCN)NC(=O)CNC(=O)[C@@H](NC(=O)[C@@H](N)CC(C)C)C(C)C)C(C)C)C(C)C)CSSC[C@@H](C(=O)O)NC1=O,"RNA-seq, refers to: Rell2","mouse, traumatic brain injury model, frontal cortex and hippocampus",dose not given,reference: TBI alone,log2 fold change,-0.873
COc1ccc(-c2[nH]c3c(OC)c(OC)ccc3c2C(=O)c2cc(OC)c(OC)c(OC)c2)cc1OP(=O)([O-])[O-].[Na+].[Na+],outcome: decreased,"mouse, BALB/c, orthotopic RENCA-luc, kidney tumour",dose not given,,bioluminescence signal,decreased
COc1ccc([C@@H](O)c2cc(-c3ncnc4cc(N5CCOCC5)ccc34)c(F)cc2Cl)nn1,,"mouse, orthotopic M15 xenograft","125 mg/kg, with: radiotherapy",reference: radiotherapy alone,median survival extension,50%
Cc1nc(Nc2ccc(CC(=O)O)cc2)nc(Nc2ccc(F)c(C(F)(F)F)c2)c1C,,"mice, chronic ethanol plus binge, liver","intraperitoneal, 0.3 mg/kg daily, ethanol diet 4 weeks, dosed last two",reference: vehicle,Oil Red O staining,decreased
C[C@]1(O)CC[C@@]2(C)[C@@H](CC[C@@H]3[C@@H]2CC[C@]2(C)[C@@H]([N+](=O)[O-])CC[C@@H]32)C1,protection against pentylenetetrazol seizures,male NIH Swiss mice,"intraperitoneal, 15 min before test, with: pentylenetetrazol 80 mg/kg s.c.",,ED50,> 100 mg/kg
CN1CCN(C(C(=O)NCCc2ccc(F)cc2)c2ccc(C#N)cc2)CC1 (stereo not drawn),qPCR,"rat, male and female, prefrontal cortex","ip, 100 mg/kg twice daily, 7 days, with: clavulanic acid 10 mg/kg",reference: vehicle,GLT-1 mRNA level,no effect
C[C@H]1N=C(c2ccccc2F)c2cc(Br)ccc2-n2cnc(C(=O)O)c21,,guinea pig tracheal rings,with: substance P contraction,,relaxation time,≤ 30 min
O=C(O)CNC(=O)c1cc2ccccc2n1Cc1ccc(Br)c2ccccc12,,"mouse, acute hyperuricaemia model","oral, 2 mg/kg",reference: model control,serum uric acid decrease,28.7%
CCCCC1(CCCC)CN(c2ccccc2)c2cc(SC)c(OCC(=O)N[C@@H](C(=O)NCC(=O)O)c3ccccc3)cc2S(=O)(=O)C1,refers to: HDL cholesterol,"human, serum","15 mg once daily, day 9",,serum HDL-C,45 mg/dL
Cc1cccc(C)c1NC(=O)C1CCCCN1 (stereo not drawn),,"Sprague-Dawley rat, male","intrathecal, 30 µL, 30 mM",,sensory block duration,24.8 ± 8.7 min
c1ccc2c(c1)Nc1ccccc1S2,,CT26 tumour-bearing mice,"intraperitoneal, 100 mg/kg equivalents daily, day 0",,tumour volume,128 mm³
N.N.[Cl][Pt][Cl],,"KSN/Slc nude mice, SAS xenograft","dose not given, day 2",,tumour volume,47.7 mm3 and 127 mm3 and 39 mm3 and 51.7 mm3 and 135 mm3 and 143 mm3 and 84.7 mm3 and 217 mm3
O=C(O)/C=C/C(=O)O.Oc1cccc2[nH]cc(CCNCc3ccccc3)c12,,C57BL/6J mice,"subcutaneous, 10 mg/kg",,head twitch count,25 ± 1.9
[131I-].[Na+],ATA response criteria,"human, papillary thyroid cancer with metastases",3700 MBq,,excellent response,50.3%
C[C@H]1O[C@@H](O[C@H]2CC[C@@]3(C)[C@@H](CC[C@]4(C)[C@@H]3C=C[C@]35OC[C@@]6(CCC(C)(C)C[C@H]63)[C@@H](O)C[C@]54C)[C@]2(C)CO)[C@H](O)[C@@H](O[C@@H]2O[C@H](CO)[C@@H](O)[C@H](O)[C@H]2O)[C@H]1O,,"Mus musculus, pair-fed, AAV8-TBG-Null vector, plasma","oral, high dose, 5 h",,ALT activity,18.8 U/L and 20 U/L and 25.5 U/L and 18.1 U/L and 19.6 U/L and 20.4 U/L
Cc1cn(-c2cc(NC(=O)c3ccc(C)c(Nc4nccc(-c5cccnc5)n4)c3)cc(C(F)(F)F)c2)cn1,,human patients,"baseline, unit not given",reference: placebo,ADAS-Cog maze time difference,3
CCCCC/C=C\C/C=C\C/C=C\C/C=C\CCCC(=O)NCCO,"mechanical hypersensitivity, electronic von Frey","male CD1 mouse, CFA inflammatory pain","i.p., 20 mg/kg",reference: vehicle,duration of effect,10 to 60 min
CN1CCN(S(=O)(=O)c2cc([N+](=O)[O-])ccc2N(CCOS(C)(=O)=O)CCOS(C)(=O)=O)CC1,,"NSG mice, sample CG PDX","intraperitoneal, 25 mg/kg weekly x3",reference: treated over vehicle,EFS ratio (T/C),3.2
CCCCCN1C[C@H](O)[C@@H](O)[C@H](O)[C@@H]1CO,,"Hexb-/- mice, male",300 mg/kg/day,,median survival,159 days
C=CC(=O)N[C@H]1C=C(C)c2c(-c3cnc4ccccc4c3)c3c(N)ncnc3n2C1,,"NCI-H2073 parental xenograft (EGFR wild-type), BALB/c nude mice","50 mg/kg once daily, 21 days",,tumour growth inhibition,69.2%

# Repeated from above:
Structure (SMILES),assay,system,setting,how to read,quantity,result
[131I-].[Na+],ATA response criteria,"human, papillary thyroid cancer with metastases",3700 MBq,,excellent response,50.3%
CC[C@@H](C)[C@@H](NC(=O)[C@@H](Cc1ccc(O)cc1)NC(=O)[C@H]1CCCN1C(=O)[C@@H](CCCNC(=N)N)NC(=O)[C@H](N)Cc1c[nH]cn1)C(=O)N[C@H](C)C(=O)N[C@H](Cc1c[nH]cn1)C(=O)N[C@H](CCCNC(=N)N)C(=O)N[C@H](CCCCNC(=O)c1cccc(S(=O)(=O)F)c1)C(=O)N[C@H](Cc1ccc(O)cc1)C(=O)N[C@H](CO)C(=O)N[C@H](Cc1ccccc1)C(N)=O,ex vivo flow cytometry,"B16 tumour-bearing mice, tumour",dose not given,,CD3+ CD8+ T cell frequency,21.2% and 18.8% and 21.1% and 20.8% and 22.4%
